Experimental data from different studies.
A part holds a random share of what one study measured. Substitutions count along the parent as printed.

Set 1 — technique: competition protein-binding microarray; form: double-stranded DNA, one strand shown; matrix: in vitro; concentration: 2 µM; added: Pho4 competitor, 0.05 µM; direction: higher = stronger binding; constant ends, left off below: … GTCTTGATTCGCTTGACGCTGCTG
Target: Centromere-binding protein 1, full length, His-tagged (CBF1, Saccharomyces cerevisiae, UniProt P17106, residues 1-351)
UniProt P17106, sequence (whole entry, looked up): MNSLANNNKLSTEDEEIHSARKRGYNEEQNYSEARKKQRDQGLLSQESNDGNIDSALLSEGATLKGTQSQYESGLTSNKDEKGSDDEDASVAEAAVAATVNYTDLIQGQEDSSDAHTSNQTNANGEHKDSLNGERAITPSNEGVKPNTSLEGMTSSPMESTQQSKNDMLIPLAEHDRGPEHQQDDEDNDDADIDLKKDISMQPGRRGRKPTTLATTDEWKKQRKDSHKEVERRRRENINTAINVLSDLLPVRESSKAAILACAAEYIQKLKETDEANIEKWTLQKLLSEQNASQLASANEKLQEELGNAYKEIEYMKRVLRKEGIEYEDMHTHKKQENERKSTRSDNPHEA
Setting: whole 60-bp probe, lowest competitor level
Strand | fluorescence intensity [a.u.]
GTCTTGTCTCATTTTCACGTGCCGTTCCCCACTTCA | 914
CATACCCAACCTTGGTTGGTGGGTGAAGATATTTGT | 62.4
CATACCCAACCTTGTCACCAAACTTAAGATATTTGT | 90.4
CTAACGAAGGTTTGGAGCGTGGGTGACAAGCCAAGT | 52.2
TCAACCTGGGTTCGTCACGCAAGACTTGAAGATGAT | 86.4
TGTCTTTCACCTTGTCACGGGCGCTTAGCTCCAATT | 165
TTATCATATACGGTGTTAGAAGATGACGCAAATGAT | 87.8
CTTGCGTTAGCTATTTTCGTGCGATTTGTTTGTTCC | 93.3
CATACCCAACCTTGCCATGTGGGTGAAGATATTTGT | 76.6
CTAACGAAGGTTTGGCACGTGTTTTACAAGCCAAGT | 1800
CTTTCCCGATCTTGTGTGGTGGGTGTAGCACATTTG | 80
GAGCGCCATTGTACCCACGTGTAACTGGGGCGAAGG | 774
TTAGAGCTAAGAAAGCACGTGGTTACGATAATGAGG | 3610
CTTTCCCGATCTTGGTGCGTGGGTGTAGCACATTTG | 86.5
CGGGGTTAAGTTTGAATCGTGGGTGGCTTGCAGCAG | 71.8
TTGCGGTATAGGGTCCACGTGATGGGAATAAAAGCA | 5770
TGTATCCTTTGTAGGCTCGTGCTGTATCAACCTACT | 87.1
CGAAAGAGAGGTTGCCACGTTTTCCCGACGGCTGCT | 82.9
CATACCCAACCTTGTACTGTGGGTGAAGATATTTGT | 73.1
CAACCAACTGACGAAACCGTGATGGTTATCAGAACT | 93.6
TGAGTTGTCTTCCATGTCGTGCTTTGTAATTCCTCA | 90.1
AAACGGGAACGAGCGTTCGTGCGGAGTGATGGTTAG | 59.8
GAACTTGAAGCACTTCACGTGCCGATCCTGCGCTCA | 720
AGTAACTACGTAAATCACCTGCTACCTCTCTGTTCT | 169
AAAGCGGTAATTTGGGCTGTGGGTGCAGATATCTAT | 73.5

Set 2 — technique: RNA Bind-n-Seq; form: RNA; matrix: in vitro; concentration: 365 nM; relative to: no-protein control; direction: higher = stronger binding
Target: RNA binding protein fox-1 homolog 2, RRM domain, GST-SBP tag (RBFOX2, Homo sapiens, UniProt O43251-10, residues 100-194)
Setting: natural RNA segment, single round, ends assumed
Constant ends, left off below: GGGAGUUCUACAGUCCGACGAUC … UGGAAUUCUCGGGUGCCAA
Residues (chain): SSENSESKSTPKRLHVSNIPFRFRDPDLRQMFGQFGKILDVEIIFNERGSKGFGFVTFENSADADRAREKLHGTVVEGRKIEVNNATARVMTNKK
Strand | RBNS enrichment (R)
AGUGGCUGUUCUAGGCAUAGCCCUCCCUGAACUAGAAAGGAGAGUAACCAGUUUGCUAUGCUGCAUCUAACCAGACACACCUGACUUAGUAGUAACUCUAAGAACCCUUA | 0.558
GAGAACUAUAUGCAGAUUUUAAAAUCUAGUCAGUACUAGCAUCUAUAAAGGGCUUUUCUGAAAUUUAAACAGCUUGGUGAUGCAUCCUGAUAUUAUAAGCUUAAAACUAU | 0.962
UUAUAAUCUGAGAGAGUUAAUCUCAGAGGAUGCUUUUUUCCUUUUAAUCUGCUAUGAAUCAGUACCCAGAUGUUUAAUUACUGUACUUAUUAAAUCAUGAGGGCAAAAGA | 0.643
AGGGCUGGCCCUUAUUUGCUCUCCCUCCUUCGACUUGCAGAAAUUAAUUUAAUUAAUUAAUUUACUAUAUUAAAGCCCUUGGUCACCCAAGGGCUCAGAAAACAAGCUGU | 0.507
CCUUAUCCUAUAGAGGCAUUUGUAAUAUGGAGAAAAUAAUUUUUCAUUUUUGCUCAUUUAAUUCUAUAAAUUCUCUUUAUAAAUGAAUUUUGUGUUCUUUAGUUCUCCUU | 0.729
UCUCGAUGGACAAUGAACGGCCUUGCUGGGGGCCGCCCUGUACCCUCUUUCACCUUUCCCUAAAGACCCUAAAUCUGAGGAAUCAACAGGGCAGCAGAUCUGUAUAUUUU | 0.387
UAAAAGAACAAAGAGUGAAAUAUUGUAAAUGCUAUUAUACUGUUAUCCAUAUUACGUUGUUUCUUAUAGAUUUUUUAAAAAAAAUGUGAAAUUUUUCCACACUAUGUGUG | 1.04
UGAAGAGUGCAAUGGCAAAACAAGAGCAAAAAGCACUUCCUCCCAUGACCUUACAGUAACCAUACUGAUUGAAUCCCCAGGGACAUUCCAUCAUUGCAAUAGCUCAGAUU | 0.319
GUGGGAGAGAACCCGGGGCCUGCUUUUCAAGGAUGAGGAGGAGGCAGGAACAGAAGGCAGCUGCUGCUUUCUGUGGAAACCUGGCCCCUCUGGAAUUGGCCUCUGUGGGC | 0.557
GUCCCUUUAAGAUUUUUUUAUUCUAAACAAAAUAAAGAAAAUCCUGCUGCUCUGGUCCUUGUGAUAAGCCUCUCUUCGGCAUCUGAGGAGCAGCUGCAGCAAAAUCUAGG | 0.36
UUCCCAGCUCUGCAUCAACACAGCAGCCUGCAGAUAACACUUGGGGGGACCUCAGCCUCUAUUCGCAACUCAUAAUCCGUAGACUACAAGAUGAAAUCUCAAUAAAUUAU | 0.514
AUGCCGACUCUGCUCUGUGUUAGAGAUAUGAAAUGGUGUUUGAUACUGUUUGAGACAUUAUGGAGAGAUUUAAUUAUUUGUAAUAAAAGAUUUGCUGCAGUCUGAAAACU | 0.443

Set 3 — technique: protein-binding microarray; form: double-stranded DNA, one strand shown; matrix: in vitro; concentration: 2200 nM top; setting: 60-bp whole probe; added: salmon DNA 0.4 mg/ml; relative to: random background probes; direction: higher = stronger binding; constant ends, left off below: GCCTAGCAC … GTCTTGATTCGCTTGACGCTGCTG
Target: Interferon regulatory factor 7, full length, phosphomimetic (IRF7, Homo sapiens, UniProt Q92985, residues 1-503, S471D/S472D/S475D/S476D/S477D/S483D/S484D/S487D)
UniProt Q92985, sequence (whole entry, unmodified, looked up): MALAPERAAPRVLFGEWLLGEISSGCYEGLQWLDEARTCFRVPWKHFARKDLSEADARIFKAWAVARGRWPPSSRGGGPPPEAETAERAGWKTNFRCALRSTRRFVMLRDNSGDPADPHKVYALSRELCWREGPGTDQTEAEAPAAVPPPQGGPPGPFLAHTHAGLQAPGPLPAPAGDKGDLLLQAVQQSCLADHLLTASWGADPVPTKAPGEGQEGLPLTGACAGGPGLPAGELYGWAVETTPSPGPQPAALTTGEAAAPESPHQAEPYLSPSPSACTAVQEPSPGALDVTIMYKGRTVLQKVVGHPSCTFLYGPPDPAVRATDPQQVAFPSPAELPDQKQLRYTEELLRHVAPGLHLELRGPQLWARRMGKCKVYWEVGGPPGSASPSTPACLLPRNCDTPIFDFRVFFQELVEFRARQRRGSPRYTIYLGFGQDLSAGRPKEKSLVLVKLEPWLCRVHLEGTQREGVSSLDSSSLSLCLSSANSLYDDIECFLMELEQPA
Strand | fitted relative affinity
TTAGGACTGCTCATCCTTTAGTGCTAG | 0.496 z-score
TTAGCACTGCTTATCCTTTAGTGCTAG | 0.613 z-score
AACGATATCGGGACTGGAGACGTGCTA | 0.142 z-score
TTAGGACTGGACTATAGGTTAGTGCTA | -0.78 z-score
TTAGGTATCGACTATCGGCTAGTGCTA | 0.0843 z-score
GGTCATGTCTGTGTCACAGAGTGCTAG | 0.316 z-score
GTCAAACTCACTCATGGCTTTGTGCTA | 0.529 z-score
TTCTAAATATCTTTGTTGAAGTGCTAG | -0.0828 z-score
AGAAACTTTTTTCTGATTGAGTGCTAG | 1.53 z-score
TTTTTCTCCTATTTAAGACAGTGCTAG | 1.83 z-score
ATAGGTTTCGGTTTCGGTTAGTGCTAG | 18 z-score
GGCGGTATCGACTTTCGGGACGTGCTA | 2.38 z-score
TTAGCTTTCGGGTATCGATTAGTGCTA | 6.02 z-score
GACGGTAGCCTTATCCTGACGTGCTAG | 0.204 z-score
GACGGATCCCTTTTCCTGACGTGCTAG | 1.48 z-score
GACGAACTGAGTATCCAGACGTGCTAG | -0.0806 z-score
GAGCCTCTGTTTTGAGCACAGTGCTAG | 0.832 z-score
TTAGGTATAGGTTTCGGTTAGTGCTAG | 5.28 z-score
TCAATTCTCCACTTGTGACTGTGCTAG | 1.41 z-score
AGACCTTCACCTCTCTGTCCGTGCTAG | 1.52 z-score
GTCGAACTGGGGTATCGAGACGTGCTA | 0.234 z-score
GACAGTTTCGGGTTTCGGGACGTGCTA | 12.1 z-score
TTATGTTTCCTTTTCCTTTAGTGCTAG | 7.31 z-score
TCAACTCTCTTGTCTGGAACTGTGCTA | 1.24 z-score
GAGGGTTTCGGGTATCGGGACGTGCTA | 3.47 z-score

Set 4 — target: CCND3, cyclin fold, Cln2 fusion (human); technique: yeast growth competition, sequencing; matrix: yeast; setting: weak parent motif; relative to: not given; direction: higher = stronger binding
Starting sequence: HASPIN docking peptide (human); ASLRSVLFGLMNS
Change | normalised enrichment score
ASLRSVLAGLMNS [F8A] | -0.436
ASLRAVLFGLMNS [S5A] | -0.267
ASLRSVLFGAMNS [L10A] | 0.469
ASLASVLFGLMNS [R4A] | -1.07
ASLRSVLFGLMNA [S13A] | -0.674
AALRSVLFGLMNS [S2A] | -0.776

Excerpt of the above (set 3):
Strand | fitted relative affinity
TTAGGACTGGACTATAGGTTAGTGCTA | -0.78 z-score
TTAGGACTGCTCATCCTTTAGTGCTAG | 0.496 z-score
GAGCCTCTGTTTTGAGCACAGTGCTAG | 0.832 z-score
GACGGTAGCCTTATCCTGACGTGCTAG | 0.204 z-score
GACAGTTTCGGGTTTCGGGACGTGCTA | 12.1 z-score
AGACCTTCACCTCTCTGTCCGTGCTAG | 1.52 z-score
